Published values pooled from the literature.
Compare with care: the assays were run in different laboratories.
Target: Casein kinase I isoform gamma-3 (CSNK1G3, Homo sapiens, UniProt Q9Y6M4)
UniProt Q9Y6M4, sequence (whole entry, looked up): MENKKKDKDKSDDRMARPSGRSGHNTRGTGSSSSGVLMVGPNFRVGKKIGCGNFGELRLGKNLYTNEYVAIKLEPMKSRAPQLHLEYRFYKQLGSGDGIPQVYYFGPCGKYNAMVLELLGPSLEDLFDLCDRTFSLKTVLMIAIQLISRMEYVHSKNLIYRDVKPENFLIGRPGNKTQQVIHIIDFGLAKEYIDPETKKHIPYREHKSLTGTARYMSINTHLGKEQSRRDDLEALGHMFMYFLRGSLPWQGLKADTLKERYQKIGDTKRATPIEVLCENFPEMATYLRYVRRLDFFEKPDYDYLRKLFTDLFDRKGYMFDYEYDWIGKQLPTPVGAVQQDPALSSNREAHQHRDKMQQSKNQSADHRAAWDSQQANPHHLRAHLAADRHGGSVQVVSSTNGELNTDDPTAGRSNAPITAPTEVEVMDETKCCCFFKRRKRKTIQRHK

`C1=C/COCc2cc(ccc2OCCN2CCCC2)Nc2nccc(n2)-c2cccc(c2)COC/1` — result for “percent of control”: 100% (concentration not given).
`COc1cc(N2CCN(C)CC2)ccc1Nc1nc(N)n(C(=S)NCc2c(Cl)cccc2Cl)n1` has a remaining activity of 21% (enzyme activity; 10 µM; relative to: control).
`CNc1ncc2c(/C=C/C(=O)N3CCC(OC)CC3)nn(Cc3cccc(C(F)(F)F)c3)c2n1` has a remaining activity of 108% (kinase activity, inhibitor; 1 µM; relative to: untreated control).
The remaining activity of `CCN(CC)c1ccc(C2=NNC(=O)CC2C)cc1[N+](=O)[O-]` (centres unmarked) is reported as 101% (enzyme activity, inhibitor; 10 µM; relative to: vehicle).
The remaining binding of `C=CC(=O)N1CCC(COCC(=O)N2CCN(c3nc(-c4cnc(N)nc4C(F)F)nc(N4CCOC[C@@H]4C)n3)CC2)CC1` is reported as 100% (KINOMEscan; 1 µM; relative to: DMSO control).
`C=CC(=O)N1CCC(C(=O)NCC(=O)N2CCN(c3nc(-c4cnc(N)nc4C(F)F)nc(N4CCOCC4)n3)CC2)CC1` has a remaining binding of 100% (KINOMEscan; 1 µM).
`COc1cc(F)ccc1-c1ncnc(Nc2cccc(C[S@](C)(=N)=O)c2)n1` has a remaining activity of 98% (kinase activity; 10 µM, together with: 10 µM ATP).
The remaining activity of `O=C(NC1CCC1)c1ccc2nc(-c3cccc(NS(=O)(=O)NCCN4CCCCC4)c3)cn2c1` is reported as 100% (enzyme activity; 10 µM).
For `CCCOc1ccc(OC)c(F)c1C(=O)c1ccc(C(=O)N[C@@H]2CNC[C@H]2NC(=O)c2ccc3[nH]ncc3c2)cc1`, the remaining activity was 31% (enzyme activity; 10 µM).
With `C[C@@H](c1ccc(-n2cnc3c(N)ncnc32)cc1)N1CCc2nn(C)c(Cc3ccccc3)c2C1=O` the remaining binding was 75% (KINOMEscan; 0.1 µM; relative to: DMSO control).
For `Cc1cc(Nc2cc(N3CCN(C)CC3)nc(Sc3ccc(NC(=O)C4CC4)cc3)n2)[nH]n1`, the remaining activity was 104% (kinase activity, KinaseProfiler; 0.03 µM, species human; relative to: control).

A few entries again:
The remaining binding of `C=CC(=O)N1CCC(COCC(=O)N2CCN(c3nc(-c4cnc(N)nc4C(F)F)nc(N4CCOC[C@@H]4C)n3)CC2)CC1` is reported as 100% (KINOMEscan; 1 µM; relative to: DMSO control).
For `CCCOc1ccc(OC)c(F)c1C(=O)c1ccc(C(=O)N[C@@H]2CNC[C@H]2NC(=O)c2ccc3[nH]ncc3c2)cc1`, the remaining activity was 31% (enzyme activity; 10 µM).
